Measured values of several laboratories.
Every numbered part comes from another study and shows a few of its results, in no order.
UniProt Q5XXA6, sequence (whole entry, unmodified, looked up): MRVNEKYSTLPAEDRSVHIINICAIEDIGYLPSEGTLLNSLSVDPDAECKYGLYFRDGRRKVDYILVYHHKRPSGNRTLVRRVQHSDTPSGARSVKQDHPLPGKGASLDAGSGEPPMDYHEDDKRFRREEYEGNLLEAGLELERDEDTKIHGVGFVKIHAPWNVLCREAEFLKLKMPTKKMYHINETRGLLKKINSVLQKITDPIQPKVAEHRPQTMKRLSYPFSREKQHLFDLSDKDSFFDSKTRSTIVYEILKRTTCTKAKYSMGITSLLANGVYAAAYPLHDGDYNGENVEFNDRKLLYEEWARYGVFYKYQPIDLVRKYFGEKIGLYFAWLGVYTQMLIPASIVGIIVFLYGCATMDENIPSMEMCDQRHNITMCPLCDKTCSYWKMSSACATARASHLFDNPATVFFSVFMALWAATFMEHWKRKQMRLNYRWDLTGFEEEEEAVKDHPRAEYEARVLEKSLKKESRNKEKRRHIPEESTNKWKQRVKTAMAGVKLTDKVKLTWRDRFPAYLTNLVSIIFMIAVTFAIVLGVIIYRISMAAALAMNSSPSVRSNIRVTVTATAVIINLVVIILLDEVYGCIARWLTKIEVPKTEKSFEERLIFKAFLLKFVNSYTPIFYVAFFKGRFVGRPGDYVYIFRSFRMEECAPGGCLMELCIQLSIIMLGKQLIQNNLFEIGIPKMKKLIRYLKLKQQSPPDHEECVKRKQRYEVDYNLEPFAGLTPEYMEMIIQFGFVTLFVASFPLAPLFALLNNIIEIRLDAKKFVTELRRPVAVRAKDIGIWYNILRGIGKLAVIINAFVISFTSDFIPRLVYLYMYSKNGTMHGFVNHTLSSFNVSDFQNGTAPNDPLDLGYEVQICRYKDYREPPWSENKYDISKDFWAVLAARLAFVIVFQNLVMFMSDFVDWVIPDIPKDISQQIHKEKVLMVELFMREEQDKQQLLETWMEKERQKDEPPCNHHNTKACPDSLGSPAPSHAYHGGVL
UniProt Q9UPZ9, sequence (whole entry, looked up): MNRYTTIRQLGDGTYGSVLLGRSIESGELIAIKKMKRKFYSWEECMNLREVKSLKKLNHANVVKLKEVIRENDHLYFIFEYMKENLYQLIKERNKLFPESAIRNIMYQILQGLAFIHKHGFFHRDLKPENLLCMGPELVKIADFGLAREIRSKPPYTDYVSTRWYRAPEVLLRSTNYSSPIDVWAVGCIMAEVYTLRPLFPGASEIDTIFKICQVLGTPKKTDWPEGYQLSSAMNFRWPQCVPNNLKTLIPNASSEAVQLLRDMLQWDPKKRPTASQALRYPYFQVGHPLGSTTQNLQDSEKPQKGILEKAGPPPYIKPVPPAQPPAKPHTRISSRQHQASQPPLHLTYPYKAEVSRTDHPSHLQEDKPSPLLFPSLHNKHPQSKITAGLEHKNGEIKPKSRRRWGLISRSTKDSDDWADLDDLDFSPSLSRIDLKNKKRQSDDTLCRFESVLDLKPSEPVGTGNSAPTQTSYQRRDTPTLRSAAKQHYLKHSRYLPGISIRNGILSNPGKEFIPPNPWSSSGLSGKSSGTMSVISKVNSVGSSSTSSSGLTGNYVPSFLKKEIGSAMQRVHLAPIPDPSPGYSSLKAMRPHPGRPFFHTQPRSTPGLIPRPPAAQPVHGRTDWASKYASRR
UniProt P29323, sequence (whole entry, looked up): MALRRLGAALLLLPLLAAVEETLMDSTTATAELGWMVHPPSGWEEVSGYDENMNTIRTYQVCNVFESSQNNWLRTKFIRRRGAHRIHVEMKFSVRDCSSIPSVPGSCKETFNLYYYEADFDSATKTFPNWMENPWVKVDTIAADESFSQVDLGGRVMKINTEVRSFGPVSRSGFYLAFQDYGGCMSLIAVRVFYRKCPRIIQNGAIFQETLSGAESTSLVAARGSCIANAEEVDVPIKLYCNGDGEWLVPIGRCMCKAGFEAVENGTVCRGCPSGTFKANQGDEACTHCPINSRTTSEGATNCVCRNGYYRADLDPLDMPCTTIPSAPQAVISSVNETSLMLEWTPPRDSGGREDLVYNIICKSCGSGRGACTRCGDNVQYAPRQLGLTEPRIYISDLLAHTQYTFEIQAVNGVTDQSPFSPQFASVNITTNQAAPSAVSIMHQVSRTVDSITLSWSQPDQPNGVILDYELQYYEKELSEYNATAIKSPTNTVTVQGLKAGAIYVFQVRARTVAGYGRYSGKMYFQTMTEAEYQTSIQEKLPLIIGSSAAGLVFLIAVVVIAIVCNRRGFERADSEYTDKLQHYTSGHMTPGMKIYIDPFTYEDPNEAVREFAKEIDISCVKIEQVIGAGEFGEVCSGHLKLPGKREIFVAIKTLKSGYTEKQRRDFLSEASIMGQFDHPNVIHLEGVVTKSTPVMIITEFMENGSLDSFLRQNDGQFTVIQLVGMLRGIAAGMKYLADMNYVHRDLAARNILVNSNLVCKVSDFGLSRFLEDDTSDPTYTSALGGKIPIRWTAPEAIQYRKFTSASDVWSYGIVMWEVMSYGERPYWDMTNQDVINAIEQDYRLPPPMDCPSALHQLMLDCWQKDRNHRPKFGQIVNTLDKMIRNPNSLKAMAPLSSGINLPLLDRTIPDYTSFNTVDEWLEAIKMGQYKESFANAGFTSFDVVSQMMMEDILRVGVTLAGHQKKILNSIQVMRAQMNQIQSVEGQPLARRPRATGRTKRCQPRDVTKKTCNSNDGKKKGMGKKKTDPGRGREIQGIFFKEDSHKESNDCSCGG
UniProt Q13153, sequence (whole entry, looked up): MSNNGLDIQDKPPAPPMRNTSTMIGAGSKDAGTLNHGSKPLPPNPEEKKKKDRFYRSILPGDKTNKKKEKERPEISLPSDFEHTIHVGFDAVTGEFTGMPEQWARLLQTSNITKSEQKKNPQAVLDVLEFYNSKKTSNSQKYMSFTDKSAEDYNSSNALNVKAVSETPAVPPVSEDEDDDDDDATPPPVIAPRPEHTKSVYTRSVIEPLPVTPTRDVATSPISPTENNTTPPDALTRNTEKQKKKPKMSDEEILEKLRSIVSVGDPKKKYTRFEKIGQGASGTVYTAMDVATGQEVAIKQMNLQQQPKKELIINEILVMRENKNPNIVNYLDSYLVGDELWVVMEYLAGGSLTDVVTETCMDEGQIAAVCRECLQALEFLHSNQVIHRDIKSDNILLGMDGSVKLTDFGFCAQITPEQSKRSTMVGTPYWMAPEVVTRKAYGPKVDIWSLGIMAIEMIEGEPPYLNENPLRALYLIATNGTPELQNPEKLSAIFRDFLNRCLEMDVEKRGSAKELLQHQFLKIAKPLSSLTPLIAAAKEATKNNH
UniProt P09619, sequence (whole entry, looked up): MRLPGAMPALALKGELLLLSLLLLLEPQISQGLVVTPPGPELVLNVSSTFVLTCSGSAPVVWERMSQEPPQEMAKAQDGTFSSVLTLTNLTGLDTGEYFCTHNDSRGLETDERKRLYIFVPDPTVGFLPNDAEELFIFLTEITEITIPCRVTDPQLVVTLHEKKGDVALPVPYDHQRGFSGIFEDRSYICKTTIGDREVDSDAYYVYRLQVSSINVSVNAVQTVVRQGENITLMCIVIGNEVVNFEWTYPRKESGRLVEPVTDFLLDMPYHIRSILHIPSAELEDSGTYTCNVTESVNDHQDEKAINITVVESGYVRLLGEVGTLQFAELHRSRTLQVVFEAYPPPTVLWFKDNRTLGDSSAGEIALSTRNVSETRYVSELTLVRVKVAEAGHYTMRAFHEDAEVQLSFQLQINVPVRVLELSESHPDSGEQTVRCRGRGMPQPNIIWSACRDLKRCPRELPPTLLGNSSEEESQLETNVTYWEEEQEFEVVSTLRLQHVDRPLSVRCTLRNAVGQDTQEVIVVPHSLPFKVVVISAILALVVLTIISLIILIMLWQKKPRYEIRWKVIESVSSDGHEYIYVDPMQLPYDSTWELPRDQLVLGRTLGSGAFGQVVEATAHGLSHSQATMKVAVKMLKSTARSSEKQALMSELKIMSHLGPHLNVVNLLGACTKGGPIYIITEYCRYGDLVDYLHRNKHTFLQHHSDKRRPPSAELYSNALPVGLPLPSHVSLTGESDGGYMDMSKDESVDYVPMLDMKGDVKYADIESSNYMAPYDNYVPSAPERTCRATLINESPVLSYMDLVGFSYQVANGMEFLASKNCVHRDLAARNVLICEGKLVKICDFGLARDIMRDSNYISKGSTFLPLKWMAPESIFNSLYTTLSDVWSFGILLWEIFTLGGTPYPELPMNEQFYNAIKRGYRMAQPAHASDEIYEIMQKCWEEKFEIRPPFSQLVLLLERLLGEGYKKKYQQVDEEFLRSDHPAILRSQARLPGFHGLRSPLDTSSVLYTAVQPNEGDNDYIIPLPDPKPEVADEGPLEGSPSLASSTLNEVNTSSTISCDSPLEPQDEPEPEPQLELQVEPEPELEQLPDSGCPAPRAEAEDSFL
UniProt P78356, sequence (whole entry, looked up): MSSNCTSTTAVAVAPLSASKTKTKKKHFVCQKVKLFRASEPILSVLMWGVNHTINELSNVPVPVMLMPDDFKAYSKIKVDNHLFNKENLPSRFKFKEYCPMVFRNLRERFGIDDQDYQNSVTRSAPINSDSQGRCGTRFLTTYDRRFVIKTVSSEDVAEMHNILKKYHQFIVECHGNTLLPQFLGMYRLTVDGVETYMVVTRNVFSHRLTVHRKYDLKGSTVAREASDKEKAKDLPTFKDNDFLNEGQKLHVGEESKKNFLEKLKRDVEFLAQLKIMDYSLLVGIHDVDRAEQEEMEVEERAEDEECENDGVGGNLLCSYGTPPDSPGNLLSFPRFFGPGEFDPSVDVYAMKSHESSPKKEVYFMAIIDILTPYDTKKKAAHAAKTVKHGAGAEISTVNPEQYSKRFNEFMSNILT

Sample 1
SMILES: C=CCc1ccc(O)c(-c2cc(CC=C)ccc2O)c1
Observed: chloride current
Technique: whole-cell voltage clamp
| target | mode | tested at | setting | IC50 |
| --- | --- | --- | --- | --- |
| Anoctamin-1 (ANO1, Homo sapiens, UniProt Q5XXA6, del476-501/F623A) |  |  | membrane voltage -100 mV | 65.8 µM |
| Anoctamin-1 (ANO1, Homo sapiens, UniProt Q5XXA6, del476-501/R541K) | inhibitor |  | R515K mutant at 80 mV | 25.4 µM |
| Anoctamin-1 (ANO1, Homo sapiens, UniProt Q5XXA6, del476-501/F646A) |  |  | membrane voltage 20 mV | 19 µM |
| Anoctamin-1 (ANO1, Homo sapiens, UniProt Q5XXA6, del476-501/E649K) | inhibitor |  | E623K mutant at 40 mV | 124 µM |
| Anoctamin-1 (ANO1, Homo sapiens, UniProt Q5XXA6, del476-501/K629I) | inhibitor | 80 mV holding voltage |  | 232 µM |
| Anoctamin-1 (ANO1, Homo sapiens, UniProt Q5XXA6, del476-501/R541D) | inhibitor |  | R515D mutant at 100 mV | 187 µM |
| Anoctamin-1 (ANO1, Homo sapiens, UniProt Q5XXA6, del476-501/M544A) |  |  | membrane voltage 20 mV | 78.2 µM |

Sample 2
Technique: logD(dd/w) and ALogP
Setting: MRN method
| Compound | lipophilic permeability efficiency |
| --- | --- |
| CC(C)C[C@@H]1NC(=O)[C@H](Cc2ccccc2)NC(=O)[C@H]2CCCN2C(=O)[C@H](CC(C)C)NC(=O)[C@H](CC(C)C)NC(=O)[C@@H](CC(C)C)NC1=O | 1.99 |
| CC(C)C[C@@H]1NC(=O)[C@H](Cc2ccc(O)cc2)N(C)C(=O)[C@H]2CCCN2C(=O)[C@H](CC(C)C)NC(=O)[C@H](C)N(C)C(=O)[C@@H](C)N(C)C1=O | 1.53 |
| CC(C)C[C@@H]1NC(=O)[C@H](Cc2ccccc2)N(C)C(=O)[C@H]2CCCN2C(=O)[C@H](CC(C)C)NC(=O)[C@H](CC(C)C)N(C)C(=O)[C@@H](C)N(C)C1=O | 3.7 |
| CC[C@@H]1C(=O)N(C)[C@@H](CC)C(=O)N[C@@H](CC(C)C)C(=O)N2CCC[C@@H]2C(=O)N(C)[C@@H](Cc2ccccc2)C(=O)N[C@@H](CC(C)C)C(=O)N1C | 3.75 |
| CC[C@H]1NC(=O)[C@H](CC(C)C)NC(=O)[C@H](Cc2ccccc2)NC(=O)[C@H]2CCCN2C(=O)[C@H](CC2CCCCC2)NC(=O)[C@H](CC2CCCCC2)NC1=O | 1.75 |

Sample 3
Host: human
Medium: microsomes or S9
Tested at: 2 µM
Time: 0.5 h
| Structure (SMILES) | remaining compound [%] |
| --- | --- |
| CCOC(=O)N1CCN(S(=O)(=O)c2c(C)c(C)c(C)c(C)c2C)CC1 | 2.84 |
| Clc1ccc(-c2csc3ncnc(N4CCCCC4c4ncc[nH]4)c23)cc1 (stereo not drawn) | 2.07 |
| CCc1nc(C)sc1CNC(=O)Nc1ccc2c(cnn2C)c1 | 79.7 |
| COC(=O)c1cc(Cl)ccc1C1CCN(CC(=O)N2CCc3ccccc32)CC1 | 1.18 |
| CC(C)n1ncc2c1N=C(O)CC2C1CCCCC1 (stereo not drawn) | 67.1 |

Sample 4
SMILES: COc1ccc2c(O[C@@H]3C[C@H]4C(=O)N[C@]5(C(=O)O)CC5/C=C\CCCCC[C@H](NC(=O)OC5CCCC5)C(=O)N4C3)cc(-c3csc(NC(=O)C(C)C)n3)nc2c1C (stereo partly drawn)
Technique: competition with immobilised ligand
Tested at: 1 µM
| target | observed | remaining binding [%] |
| --- | --- | --- |
| Serine/threonine-protein kinase ICK (CILK1, Homo sapiens, UniProt Q9UPZ9) | cell-free assay | 68 |
| Receptor-type tyrosine-protein kinase FLT3 (FLT3, Homo sapiens, UniProt P36888, D835V) | cell-free assay | 79 |
| Phosphatidylinositol 5-phosphate 4-kinase type-2 beta (PIP4K2B, Homo sapiens, UniProt P78356) | cell-free assay | 100 |
| Inhibitor of nuclear factor kappa-B kinase subunit epsilon (IKBKE, Homo sapiens, UniProt Q14164) | cell-free assay | 82 |
| Calcium/calmodulin-dependent protein kinase kinase 2 (CAMKK2, Homo sapiens, UniProt Q96RR4) | cell-free assay | 100 |
| Ephrin type-B receptor 2 (EPHB2, Homo sapiens, UniProt P29323) | cell-free assay | 98 |
| Platelet-derived growth factor receptor beta (PDGFRB, Homo sapiens, UniProt P09619) | cell-free assay | 94 |
| Serine/threonine-protein kinase PAK 1 (PAK1, Homo sapiens, UniProt Q13153) | cell-free assay | 100 |
| Cyclin-dependent kinase 2 (CDK2, Homo sapiens, UniProt P24941) | cell-free assay | 99 |
| Insulin receptor-related protein (INSRR, Homo sapiens, UniProt P14616) | cell-free assay | 95 |
| Receptor-type tyrosine-protein kinase FLT3 (FLT3, Homo sapiens, UniProt P36888) | cell-free assay | 88 |
| Epidermal growth factor receptor (EGFR, Homo sapiens, UniProt P00533, A750P/del747-749) | cell-free assay | 98 |
| Macrophage colony-stimulating factor 1 receptor, autoinhibited (CSF1R, Homo sapiens, UniProt P07333) | cell-free assay | 89 |
| cAMP-dependent protein kinase catalytic subunit PRKX (PRKX, Homo sapiens, UniProt P51817) | cell-free assay | 86 |
| Myosin-IIIb (MYO3B, Homo sapiens, UniProt Q8WXR4) | binding | 68 |

Sample 5
Cell line: HaCaT
Tested at: 100 µM
Time: 18 h
| SMILES | viability [%] |
| --- | --- |
| CCCCC1=NC2(CCCC2)C(=O)N1Cc1ccc(-c2ccccc2-c2nnn[nH]2)cc1 | 100 |
| Cc1cnc(C(=O)N[C@H]2CCCCC/C=C\[C@@H]3C[C@@]3(C(=O)NS(=O)(=O)C3CC3)NC(=O)[C@@H]3C[C@@H](Oc4nc5ccccc5c5ccccc45)CN3C2=O)cn1 | 24.7 |
| CCN(CC)CCOCCOC(=O)C(CC)(CC)c1ccccc1 | 112 |
| CC1=C(C/C=C(\C)CCC[C@H](C)CCC[C@H](C)CCCC(C)C)C(=O)c2ccccc2C1=O | 90.6 |

Excerpt of the above (sample 3):
| Structure (SMILES) | remaining compound [%] |
| --- | --- |
| CC(C)n1ncc2c1N=C(O)CC2C1CCCCC1 (stereo not drawn) | 67.1 |
| Clc1ccc(-c2csc3ncnc(N4CCCCC4c4ncc[nH]4)c23)cc1 (stereo not drawn) | 2.07 |
